Results of several laboratories.
A part holds a random share of what one study measured. Substitutions count along the parent as printed.

Study 1 — technique: protein-binding microarray; molecule type: hairpin DNA; matrix: in vitro; concentration: not given; reference: not given; direction: higher = stronger binding
Target: FOXO3, forkhead domain (mouse, UniProt Q9WVH4, residues 31-263)
Chain of UniProt Q9WVH4 (31-263, looked up): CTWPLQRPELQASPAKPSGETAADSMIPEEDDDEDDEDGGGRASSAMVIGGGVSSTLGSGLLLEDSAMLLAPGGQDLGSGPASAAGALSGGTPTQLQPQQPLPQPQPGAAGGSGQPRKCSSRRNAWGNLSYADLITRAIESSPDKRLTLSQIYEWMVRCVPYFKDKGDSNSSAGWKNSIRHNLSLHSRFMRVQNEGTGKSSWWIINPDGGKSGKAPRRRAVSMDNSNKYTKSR
Setting: whole hairpin DNA, median over replicate spots
Strand	median fluorescence
GAGGCCATGTACGCAACGCCTCCTGGCGTTGCGTACATGGCCTCACACTC (5mC at 32)	4740 a.u.
GAGGCCGTGCAAACAACGCCTCCTGGCGTTGTTTGCACGGCCTCACACTC (5mC at 38)	5210 a.u.
GAGGCCATGTAACGAACGCCTCCTGGCGTTCGTTACATGGCCTCACACTC (5mC at 31)	3990 a.u.
GAGGCCATGCAACGAACGCCTCCTGGCGTTCGTTGCATGGCCTCACACTC (5mC at 13)	4470 a.u.
GAGGCCATGCAAACACGGCCTCCTGGCCGTGTTTGCATGGCCTCACACTC (5mC at 16 28)	4570 a.u.
GAGGCCATGTAAACAACGCCTCCTGGCGTTGTTTACATGGCCTCACACTC (5mC at 14)	5210 a.u.
GAGGCCCTGTAACCAACGCCTCCTGGCGTTGGTTACAGGGCCTCACACTC (5mC at 7)	3970 a.u.
GAGGCCATGTAACCACCGCCTCCTGGCGGTGGTTACATGGCCTCACACTC (5mC at 16)	4310 a.u.
GAGGCCATGGAAACAACGCCTCCTGGCGTTGTTTCCATGGCCTCACACTC (5mC at 35)	4340 a.u.
GAGGCCATGTAACCACGGCCTCCTGGCCGTGGTTACATGGCCTCACACTC (5mC at 16 28)	4010 a.u.
GAGGCCATGCAAATAACGCCTCCTGGCGTTATTTGCATGGCCTCACACTC	4110 a.u.
GAGGCCATGTAAAGAACGCCTCCTGGCGTTCTTTACATGGCCTCACACTC	3550 a.u.

Study 2 — technique: competition protein-binding microarray; molecule type: double-stranded DNA, one strand shown; matrix: in vitro; concentration: 2 µM; added: Cbf1 competitor, 0.05 µM; direction: higher = stronger binding
Target: Phosphate system positive regulatory protein PHO4, full length, GST-tagged (PHO4, Saccharomyces cerevisiae, UniProt P07270, residues 1-312)
Setting: whole 60-bp probe, lowest competitor level
Target sequence (chain): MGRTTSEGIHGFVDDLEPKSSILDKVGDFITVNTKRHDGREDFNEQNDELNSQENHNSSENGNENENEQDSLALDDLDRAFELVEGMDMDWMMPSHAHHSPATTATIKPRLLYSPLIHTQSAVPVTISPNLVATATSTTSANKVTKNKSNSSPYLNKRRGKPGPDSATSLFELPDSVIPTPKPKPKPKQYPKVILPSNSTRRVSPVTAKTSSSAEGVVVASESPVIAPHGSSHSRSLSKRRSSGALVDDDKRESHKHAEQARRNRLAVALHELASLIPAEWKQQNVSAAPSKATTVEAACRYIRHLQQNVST
Strand	fluorescence intensity
CCTTTACTTAATACACAGGGGCAAGCCAATGTTCAAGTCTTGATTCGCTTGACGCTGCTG	3780 a.u.
TGCGCAACAACTTGAAACGTGGGTGTATGTCTAGAAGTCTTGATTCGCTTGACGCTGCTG	11700 a.u.
TGGCCTAAGGTGAAGGTCGTGCTTTTTGTTCAATTGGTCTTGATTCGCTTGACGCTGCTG	7810 a.u.
TCTCCCTCACTGCATCCCGTGACGGGTTTCTTAGCAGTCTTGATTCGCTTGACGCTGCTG	5990 a.u.
AAAGCGGTAATTTGGCTTGTGGGTGCAGATATCTATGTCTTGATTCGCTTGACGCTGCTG	4520 a.u.
TTGGGTGATGTTTTGCATGTGTGCTGCCCAAGTTGAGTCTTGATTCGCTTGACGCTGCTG	8520 a.u.
CTTTCCCGATCTTGTGTTGTGGGTGTAGCACATTTGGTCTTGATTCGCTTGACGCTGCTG	6340 a.u.
AAACTATTTTTGGCAGACGTGTTGACTGATGATGATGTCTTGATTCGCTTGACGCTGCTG	6460 a.u.
TGGCGCTTGACTCCACTCGTGAGTCTTGTTTGGACTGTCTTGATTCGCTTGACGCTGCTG	4320 a.u.
ACAGTGTCAAGCTGGCACGATCGTTCTTGCGCAGTCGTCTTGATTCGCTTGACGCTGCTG	6380 a.u.
TCTAAATTGGAGCACAGCATGACAGTTGCCACCTCTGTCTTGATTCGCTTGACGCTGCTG	5510 a.u.
AAAGCGGTAATTTGAGGTGTGGGTGCAGATATCTATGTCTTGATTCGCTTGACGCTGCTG	6110 a.u.

Study 3 — target: CCNA1, cyclin fold, Cln2 fusion (human); technique: yeast growth competition, sequencing; matrix: yeast; setting: strong parent motif; reference: not given; direction: higher = stronger binding
Starting sequence: E2F1 docking peptide (human); PPVKRRLDFETDH
Change	normalised enrichment score
PPVKRRLDFETSH [D12S]	1.8
PPVKRREDFETDH [L7E]	0.24
PPVKRRLDQETDH [F9Q]	0.358
PPVKRRLDNETDH [F9N]	0.273
PPVKLRLDFETDH [R5L]	0.215
PPVKRRGDFETDH [L7G]	-0.411
PPVKRRLEFETDH [D8E]	1.6
PPVGRRLDFETDH [K4G]	0.729
PPVKFRLDFETDH [R5F]	-0.0898
PPVKRELDFETDH [R6E]	1.09
PLVKRRLDFETDH [P2L]	1.61
PPVIRRLDFETDH [K4I]	0.724
PPVKRRQDFETDH [L7Q]	0.201
PPVKRRTDFETDH [L7T]	0.239
PGVKRRLDFETDH [P2G]	2.03
PPVKRRLDFETQH [D12Q]	1.85

Study 4 — technique: DHFR PCA, deep sequencing; matrix: yeast; added: (+)-ABA 0.11 µM; reference: wild-type fitted maximum; direction: higher = stronger binding
Target: ABI1, truncated, D143A, DHFR fusion (Arabidopsis thaliana)
Setting: methotrexate growth selection, single substitutions
Starting sequence: PYL1, truncated, DHFR fusion (Arabidopsis thaliana); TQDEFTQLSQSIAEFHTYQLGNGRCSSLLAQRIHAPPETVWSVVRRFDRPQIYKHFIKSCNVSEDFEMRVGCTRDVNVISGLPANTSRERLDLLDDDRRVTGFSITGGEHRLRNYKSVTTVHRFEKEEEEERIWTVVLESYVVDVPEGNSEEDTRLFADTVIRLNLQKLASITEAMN
Change	relative binding score
E147T	7.84%
D96K	-4.39%
K116G	0.618%
Q31T	0.958%
P37H	-0.00887%
Y141A	5.33%
T86I	41.1%
M68T	5.24%
L93T	5.1%
L166K	1.11%

Study 5 — technique: protein binding microarray; molecule type: double-stranded DNA, one strand shown; matrix: in vitro; concentration: not given; reference: not given; direction: higher = stronger binding
Target: Histone acetyltransferase KAT6A, both winged helices, GST fusion (KAT6A, Homo sapiens, UniProt Q92794, residues 1-181)
Setting: 8-mer, flanks averaged, mean of 2 arrays, mostly near background
Residues (chain): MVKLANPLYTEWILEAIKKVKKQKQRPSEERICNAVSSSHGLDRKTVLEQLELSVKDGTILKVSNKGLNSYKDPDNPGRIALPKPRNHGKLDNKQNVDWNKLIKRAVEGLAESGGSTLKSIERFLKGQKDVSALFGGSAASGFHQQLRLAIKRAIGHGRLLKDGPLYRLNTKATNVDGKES
Strand	E-score
GGGCCTAA	-0.0985
CACATGCA	-0.0619
ATCAAATC	-0.107
GTCTGAGA	-0.0619
CATGTACC	0.00275
CGGTTACA	0.161
CATCCCCA	-0.229
ATACCGTA	0.0943
GTTTTGTA	-0.116
GAGGCGTA	0.079
AAACACAC	0.114
CCCCGGTC	0.0345
ACGCGCAA	0.361
GAGGCTTA	-0.0797
